Published values of several laboratories.
A part holds a random share of what one study measured.

Set 1
Target: Histone acetyltransferase KAT6A, both winged helices, GST fusion (KAT6A, Homo sapiens, UniProt Q92794, residues 1-181)
Technique: protein binding microarray
Molecule type: double-stranded DNA, one strand shown
Medium: in vitro
Tested at: not given
Notes: 8-mer, flanks averaged, mean of 2 arrays, mostly near background
Reference: not given
Direction: higher = stronger binding
Target sequence (chain): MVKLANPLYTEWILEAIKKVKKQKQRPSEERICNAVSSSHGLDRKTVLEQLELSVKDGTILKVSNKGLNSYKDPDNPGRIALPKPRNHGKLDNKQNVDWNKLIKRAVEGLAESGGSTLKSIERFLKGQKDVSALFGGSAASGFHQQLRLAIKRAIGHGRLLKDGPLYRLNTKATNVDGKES
| Sequence | E-score |
| --- | --- |
| CCGTGGAC | 0.217 |
| TTTACAAA | -0.0221 |
| CAGGTACA | -0.12 |
| AGATCTCA | -0.00356 |
| ACATGGGC | 0.0363 |
| ACGGACGA | 0.227 |
| CGGGTCTC | 0.181 |
| CTAGCCTA | -0.097 |
| ACAACGAT | 0.0979 |
| AGGGCGAT | 0.0572 |
| GCTCTTCC | 0.0614 |
| CATACCTC | -0.139 |
| CCCGAAGG | 0.00257 |
| AGTAACGG | 0.145 |
| ATCATCAT | -0.043 |
| AGGACCGA | 0.0101 |
| GACTGAGA | -0.17 |
| AGATAAAT | -0.0988 |
| TATCCTGA | -0.152 |
| ATGGATTC | -0.12 |
| CAATCCTA | -0.123 |
| AGGTTATG | -0.216 |

Set 2
Target: Ras GTPase-activating protein-binding protein 1, full length (G3BP1, Homo sapiens, UniProt Q13283)
Chain of UniProt Q13283 (whole entry, looked up): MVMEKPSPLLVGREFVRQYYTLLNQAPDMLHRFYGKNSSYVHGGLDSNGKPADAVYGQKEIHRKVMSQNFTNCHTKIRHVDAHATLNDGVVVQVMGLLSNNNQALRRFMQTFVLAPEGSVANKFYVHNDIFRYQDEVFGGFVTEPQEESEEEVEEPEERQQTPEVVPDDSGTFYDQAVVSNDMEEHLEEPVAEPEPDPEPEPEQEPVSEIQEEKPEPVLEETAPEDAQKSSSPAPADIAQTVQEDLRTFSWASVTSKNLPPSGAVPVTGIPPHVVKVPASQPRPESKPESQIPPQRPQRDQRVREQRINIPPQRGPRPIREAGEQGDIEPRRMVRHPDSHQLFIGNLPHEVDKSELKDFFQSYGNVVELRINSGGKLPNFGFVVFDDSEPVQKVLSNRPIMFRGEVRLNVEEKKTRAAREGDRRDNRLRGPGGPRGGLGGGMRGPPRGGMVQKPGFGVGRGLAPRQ
Technique: RNA Bind-n-Seq
Molecule type: RNA
Medium: in vitro
Tested at: 200 nM
Notes: whole 134-nt RNA, ends assumed
With: 150 mM LiCl
Reference: input library
Direction: higher = stronger binding
Library: 7-deaza-guanosine replaces G
All sequences stand within: GGGAGUUCUACAGUCCGACGAUC … UGGAAUUCUCGGGUGUCAAGG
| Sequence | log2 enrichment |
| --- | --- |
| AGUCCUGUGCUACACAUCGUAUGUACCGAAUCAAACCCCCAAAUUUAAAUUUUUAAAAAAGUAUUAUGUUACGCCGUUCGGAUCUGCACU | 0.648 |
| CACAGACAACACGCGCCCACACAGACACAGAGGGAAGGGGUUGGGAUGGGGACAGGGUGCACAGCAGGGCGGGGUAGGACCCCAGCCCCU | 0.306 |
| GCAGGAAGUAAAAACAAAUGGAAAUGCUUCGGAUAGUAGCAGGGGUGGGGGUUGCUAAGGAAAGGGUGGGAUGGGAGUGGGUAAAGAGUU | -0.113 |
| UCCUGUGCUACACAUCGUAUGUACCGAAUCGGCCCCCCCGGCCCCCCCGGGCCCCCCCGGAAAGUAUUAUGUUACGCCGUUCGGAUCUGC | 0.603 |
| UAACUUUACAGGAGGAUCUGAUGGAUAUGGCAGUGGACGUGGAUUUGGGGAUGGCUAUAAUGGGUAUGGAGGAGGACCUGGAGGUGGCAA | -0.0125 |
| UCAAGUCCUGUGCUACACAUCGUAUGUACCGAAUCGGGAAAGGAAAGGGAAAGGGAAAGUAUUAUGUUACGCCGUUCGGAUCUGCACUUC | -0.344 |
| ACCAUGCAGGUGGGCAUCUUUGGGAAGUGGGGCAAGGGGGGGAUAGGGAGGGGCGUAACACUUUGGGAACAGGUGGUCCCAGGUCGUUUC | 0.335 |
| GCAGGAAGUAAAAACAAAUGGAAAUGCUUCGGAUAGUGGCAGGGGUCGGGGUUGCUAAGGAAAGGGUGGGAUGGGAGUGGGUAAAGAGUU | -0.0147 |
| CUGUGCUACACAUCGUAUGUACCGAAUCGGGGCCCCCCCGGCCCCCCCGGGGCCCCCCCGGAAAGUAUUAUGUUACGCCGUUCGGAUCUG | 1.32 |
| UGUGCUACACAUCGUAUGUACCGAAUCGGGGAAAAAAAGGGGUUUUUGGGGUUUUUUUGGGGAAAGUAUUAUGUUACGCCGUUCGGAUCU | -0.463 |
| UUCUCCUGCCCCGAAGCUCGCUGUGCGUGUGCGUGUGUGUGUCCCUCCGCCAACGCCGCCACCUCAGCCCGGCAAAUGAACUCCGUCCGA | -0.516 |

Set 3
Target: Interferon regulatory factor 5, full length, phosphomimetic (IRF5, Homo sapiens, UniProt Q13568-2, residues 1-514, K96S/S451D/S453D/S456D/S462D)
Technique: protein-binding microarray
Molecule type: double-stranded DNA, one strand shown
Medium: in vitro
Tested at: 250 nM
Notes: 60-bp whole probe
With: salmon DNA 0.4 mg/ml
Reference: random background probes
Direction: higher = stronger binding
All sequences stand within: GCCTAGCAC … GTCTTGATTCGCTTGACGCTGCTG
| Sequence | log fluorescence [z-score] |
| --- | --- |
| GACGGTCTCCTTATCCTGAGGTGCTAG | -0.311 |
| GACGGACTGGACCCTGGGGACGTGCTA | -0.813 |
| TTAGATTTCAGATTGGATTAGTGCTAG | 0.821 |
| GGCGGACTGGGGTTTCGGGACGTGCTA | 0.811 |
| TTCGATTTCAGTATCGATTAGTGCTAG | 8.67 |
| TGTGAAACCTTCAGGCACGTGTGCTAG | -0.0314 |
| GATGATCTCAGTTTCGAGACGTGCTAG | 4.87 |
| TTAGGTATCGACACTGGCTTAGTGCTA | 2.25 |
| TTAGGTTTCGAGTATCGGTTAGTGCTA | 8.66 |
| GACGCTCTCGGTCTCGGGACGTGCTAG | 0.378 |
| GACGGTTTCCTTCTGCTGACGTGCTAG | 0.853 |
| TAACTAATATTAAATATGTAGTGCTAG | 0.581 |
| ATAACCTTGAACTTCGGCCTGTGCTAG | 0.091 |
| TTAGGTATCGGGGTTCGGTTAGTGCTA | 2.06 |
| TTAGATTGCAGTCTCGATTAGTGCTAG | 0.801 |
| TCATATTTATGTATACAACTGTGCTAG | 0.957 |
| CCAGGTTGGGAGGGGTAGGGGTGCTAG | 0.654 |
| AGCCGAACAGCAATCGGATGGTGCTAG | -0.332 |
| GACGGTATCCTACTGCTCACGTGCTAG | 0.0205 |

Set 4
Target: RING finger protein unkempt homolog, zinc fingers 1-6, GST-SBP tag (UNK, Homo sapiens, UniProt Q9C0B0, residues 30-357)
Technique: RNA Bind-n-Seq
Molecule type: RNA
Medium: in vitro
Tested at: not given
Notes: RNA with constant flanks, human and mouse sites, ends assumed
Reference: input RNA pool
Direction: higher = stronger binding
All sequences stand within: GGGAGUUCUACAGUCCGACGAUC … CAACAGAGGAUUGAGCAUCA
Target sequence (chain): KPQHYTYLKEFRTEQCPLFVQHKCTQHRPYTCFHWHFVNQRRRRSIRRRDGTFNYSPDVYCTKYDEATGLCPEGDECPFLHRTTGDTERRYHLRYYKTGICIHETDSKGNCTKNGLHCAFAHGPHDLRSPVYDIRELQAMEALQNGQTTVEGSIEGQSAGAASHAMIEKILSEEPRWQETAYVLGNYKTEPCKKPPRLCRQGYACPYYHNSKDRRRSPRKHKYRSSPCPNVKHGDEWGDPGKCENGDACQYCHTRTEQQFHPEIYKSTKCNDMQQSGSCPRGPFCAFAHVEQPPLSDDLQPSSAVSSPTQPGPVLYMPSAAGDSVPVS
| Sequence | bound/input enrichment |
| --- | --- |
| UUGAAGGACAAGGGCAUUAAAGGAGAGGAAAUAGUUCAGCAGUUAAUUGAAAAUAGUACAACAUUCCGAGACAAGACAGAAUUUGCCCAAGAUAAAUAUAUUAAAAAGAAGAAAAAAAAA | 3.72 ratio |
| GAAAAGAAGCAACAACUUCUUAGAGCAGCAACAGGAAAGGCCAUUUUAAAUGGAAUAGACAGCAUAAACAAAGUGCUAGACCACUUCCGUCGAAAAGGAAUAAACCAGCAUGUUCAAAAU | 0.116 ratio |
| GUUGGCUGGCUCCGGUCCAAGAAGGCUGUUGACUGGCGUCUCUUUCGUAACAUUUUUAUGGCCUGGUUUGUCACAGUCCCCAUUUCUGGAGUUAUCAGUGCUGCCAUCAUGGCAAUCUUC | 0.123 ratio |
| CUCCAUGAGCUGAAAAUGAAGGGCCCUGAGCCAGUGGUCAGUCAAAUUAUUGACAAACUGAAGCACAUUAACCAGCUCCUGAGAACCAUGUCUAUGCCCAAAGGUAGAGUUCUGGAUAAA | 0.174 ratio |
| UUAUUUUGGUUGGUCUCCGAGACUACCAGGAUAACAAAGCUGAUGUAAUUUUAAAAUACAAUGCAGACGAAGCUAGAAGUCUGAAGGCAUACGGCGAGCUUCCAGAGCAUGCUAAAAUCA | 0.13 ratio |
| AUAACUACUCCUGCCAUGGCCGUCAGCCAUAUCAUGUUGGAAUCAUAUAAAAAGUAUAUUCUAGUGUCUUUGAUAUUACUUGGCAAAGUACAACAGCUGCCUAAAUACACCUCUCAAAUA | 0.301 ratio |
| ACCAUGAAUGAUAUCGAUGCUUUUGAAUUUCAUGAAGCCUUCUCAGGCCAGAUUUUAGCUAACUUUAAAGCCAUGGAUUCUGAUUGGUUUGCACAAAACUACAUGGGUAGGAAAACCAAG | 0.639 ratio |
| GCCUUUGAAGUGGAGCAUGAAUGCCUAGGCAAAUGUCAGGGUUUAUUUGCACCCCAGUUUUAUGUUCAGCCUGAUGCUCCGUGUAUUCAAUGUCUGGAGUGUUGUGGAAUGUUUGCACCC | 0.21 ratio |
| GUUAGCCAAUCAUUGCAGCAUUACUUAGAGCUCGGAAGGCAAGAGCUUUUUAAGAUUCUGCAUAGUAUUUUGUUAAAUGGCGAAACCCGUGAGGCUGCUCUCAGUUACAUGGCGGCUGUC | 1.14 ratio |
| GUCACCCCAAAGGAAUGGAGAGAUCAGUAGUCGUGCCAGCUGGUACAAUAAUCAAGGAAUUGUUUAAAACCAACUUAUAAGUGAAUGCCAAGUCAAAGAAUCAUGUACUCAUUAUACUAU | 0.31 ratio |
| AGUGAGGAAGUGGCUACCAAGGAGGAGCUGGUGGCAGAUGCCAAGGUGGAAAAGCCAGAAAAAGCCAAGUCUCCUGUGCCAAAAUCACCAGUGGAAGAGAAAGGCAAGUCUCCUGUGCCC | 0.0709 ratio |

A few entries again (set 2):
| Sequence | log2 enrichment |
| --- | --- |
| GCAGGAAGUAAAAACAAAUGGAAAUGCUUCGGAUAGUAGCAGGGGUGGGGGUUGCUAAGGAAAGGGUGGGAUGGGAGUGGGUAAAGAGUU | -0.113 |
| UCCUGUGCUACACAUCGUAUGUACCGAAUCGGCCCCCCCGGCCCCCCCGGGCCCCCCCGGAAAGUAUUAUGUUACGCCGUUCGGAUCUGC | 0.603 |
| UAACUUUACAGGAGGAUCUGAUGGAUAUGGCAGUGGACGUGGAUUUGGGGAUGGCUAUAAUGGGUAUGGAGGAGGACCUGGAGGUGGCAA | -0.0125 |
| UCAAGUCCUGUGCUACACAUCGUAUGUACCGAAUCGGGAAAGGAAAGGGAAAGGGAAAGUAUUAUGUUACGCCGUUCGGAUCUGCACUUC | -0.344 |
| ACCAUGCAGGUGGGCAUCUUUGGGAAGUGGGGCAAGGGGGGGAUAGGGAGGGGCGUAACACUUUGGGAACAGGUGGUCCCAGGUCGUUUC | 0.335 |
| GCAGGAAGUAAAAACAAAUGGAAAUGCUUCGGAUAGUGGCAGGGGUCGGGGUUGCUAAGGAAAGGGUGGGAUGGGAGUGGGUAAAGAGUU | -0.0147 |
| CUGUGCUACACAUCGUAUGUACCGAAUCGGGGCCCCCCCGGCCCCCCCGGGGCCCCCCCGGAAAGUAUUAUGUUACGCCGUUCGGAUCUG | 1.32 |
| UGUGCUACACAUCGUAUGUACCGAAUCGGGGAAAAAAAGGGGUUUUUGGGGUUUUUUUGGGGAAAGUAUUAUGUUACGCCGUUCGGAUCU | -0.463 |
